{"data": "Published values gathered from unrelated publications", "note": "Numbers after ± are the reported error."}
{"SMILES": "CSCC[C@H](NC(=O)[C@@H](NC(=O)[C@H](CCC(N)=O)NC(=O)[C@H](CO)NC(=O)[C@@H](N)C(C)C)[C@@H](C)O)C(=O)N[C@@H](CCCNC(=N)N)C(=O)N[C@@H](CCC(N)=O)C(=O)N[C@H](C(=O)N[C@@H](C)C(=O)N[C@H](C(=O)N1CCC[C@H]1C(=O)N[C@@H](CC(C)C)C(=O)N[C@@H](CC(C)C)C(=O)N[C@@H](Cc1c[nH]c2ccccc12)C(=O)N[C@@H](Cc1ccccc1)C(=O)N[C@@H](Cc1c[nH]c2ccccc12)C(=O)N[C@H](C(=O)NCC(=O)N[C@@H](CO)C(=O)N[C@@H](CC(C)C)C(=O)NCCOCCOCCOCCOCCOCCOCCOCCOCCOCCOCCOCCOCCC(=O)N[C@@H](CS)C(N)=O)[C@@H](C)O)C(C)C)[C@@H](C)O", "target or system": "H1264 lung adenocarcinoma", "test": "cell binding, phage binding, item: output/input phage", "setting": "10 min, 37 °C", "scale": "relative to: control phage", "measurement": "selectivity ratio", "result": "2.6 ± 0.69"}
{"SMILES": "O=C(O)c1ccc(-c2nc(-c3ccccc3Cl)c3sccn23)cc1", "target or system": "K562", "test": "megakaryocyte differentiation, flow cytometry", "setting": "0.01 mM, 48 h", "scale": "relative to: untreated", "measurement": "CD61 fluorescence intensity", "result": "1.02 fold change"}
{"SMILES": "CC(=O)NCSC[C@H](NC(=O)[C@@H]1CCCN1C(=O)[C@H](C)NC(=O)[C@@H](NC(=O)CNC(=O)[C@@H](NC(=O)[C@H](Cc1c[nH]c2ccccc12)NC(=O)[C@H](C)NC(=O)CNC(=O)[C@H](CO)NC(=O)[C@H](C)NC(=O)[C@@H]1CCCN1C(=O)[C@H](Cc1c[nH]c2ccccc12)NC(=O)[C@H](C)NC(=O)[C@H](C)NC(=O)[C@@H](N)Cc1ccc(O)cc1)[C@@H](C)O)[C@@H](C)O)C(=O)N[C@@H](CO)C(=O)N[C@@H](C)C(=O)NCC(=O)N[C@H](C(=O)NCCOCCOCCOCCOCCOCCOCCOCCOCCOCCOCCOCCOCCC(=O)N[C@@H](CS)C(N)=O)[C@@H](C)O", "target or system": "T47D breast cancer", "test": "cell binding, phage binding, item: output/input phage", "setting": "10 min, 37 °C", "scale": "relative to: control phage", "measurement": "selectivity ratio", "result": "12 ± 2.3"}
{"SMILES": "O=C(C[Se]C(=O)c1cc2ccccc2s1)Nc1cccc(C(F)(F)F)c1", "target or system": "NCI60 renal subpanel", "test": "cytotoxicity, inhibitor", "setting": "five-dose", "measurement": "CC50", "result": "6.24 µM"}
{"SMILES": "COc1ccccc1-c1ccncc1C(=O)Nc1nnc(OCc2ccc(Cl)cc2)s1", "target or system": "HCT116 BRCA2-/-", "setting": "1 µM, average of 3 runs", "scale": "relative to: untreated", "measurement": "colony survival", "result": "53.6%"}
{"SMILES": "CC(C)[C@H](NC(=O)[C@H](CCCNC(=N)N)NC(=O)[C@@H]1CCCN1C(=O)[C@@H](NC(=O)[C@H](C)NC(=O)[C@H](Cc1ccc(O)cc1)NC(=O)[C@H](CCC(N)=O)NC(=O)[C@H](CCCCN)NC(=O)[C@H](CCCNC(=N)N)NC(=O)[C@@H]1CCCN1C(=O)[C@H](CCC(=O)O)NC(=O)[C@@H](NC(=O)[C@H](C)N)[C@@H](C)O)[C@@H](C)O)C(=O)N[C@@H](Cc1ccccc1)C(=O)N[C@@H](Cc1c[nH]c2ccccc12)C(=O)N[C@H](C(=O)N[C@@H](CC(=O)O)C(=O)N[C@@H](C)C(=O)N1CCC[C@H]1C(=O)NCC(=O)NCCOCCOCCOCCOCCOCCOCCOCCOCCOCCOCCOCCOCCC(=O)N[C@@H](CS)C(N)=O)[C@@H](C)O", "target or system": "H1666 lung adenocarcinoma", "test": "cell binding, phage binding, item: output/input phage", "setting": "10 min, 37 °C", "scale": "relative to: control phage", "measurement": "selectivity ratio", "result": "0.42 ± 0.092"}
{"SMILES": "O=C(C[Se]C(=O)c1cc2ccccc2[nH]1)Nc1cccc(C(F)(F)F)c1", "target or system": "NCI60 prostate subpanel (PC-3, DU-145)", "test": "cytotoxicity, inhibitor", "setting": "five-dose", "measurement": "CC50", "result": "6.37 µM"}
{"SMILES": "CC(C)(C)C(=O)OCOP(=O)(OCOC(=O)C(C)(C)C)C1CCCN(O)C1=O (stereo not shown)", "target or system": "UACC-62", "measurement": "CC50", "result": "> 100 µM"}
{"SMILES": "O=C1NC2(CC2)COc2ncc(F)cc2[C@H]2COCCN2c2ccn3ncc1c3n2", "system": "Sprague-Dawley rat, male, heart", "setting": "oral, 10 mg/kg/day, 4 weeks, end of treatment", "measurement": "organ-to-body weight ratio", "result": "0.398 ± 0.065%"}
{"SMILES": "COc1ccc2c(c1)c(CC(=O)[Se]CC(=O)Nc1cccc(C(F)(F)F)c1)c(C)n2C(=O)c1ccc(Cl)cc1", "target or system": "NCI60 prostate subpanel (PC-3, DU-145)", "test": "cytotoxicity, inhibitor", "setting": "five-dose", "measurement": "CC50", "result": "7.42 µM"}
{"SMILES": "Cc1cc(Oc2nc(N3CC[C@@H](c4ccncc4)C3)ncc2F)[nH]n1", "target or system": "WSU-NHL", "test": "cell proliferation", "measurement": "IC50", "result": "21.4 µM"}
{"SMILES": "O=C(C[Se]C(=O)c1ccccc1)Nc1cccc(C(F)(F)F)c1", "target or system": "NCI60 prostate subpanel (PC-3, DU-145)", "test": "total growth inhibition, inhibitor", "setting": "five-dose", "measurement": "mean TGI", "result": "4.99 µM"}
{"SMILES": "CC(C)C[C@H](NC(=O)[C@H](CC(=O)O)NC(=O)CNC(=O)[C@@H](N)CCCNC(=N)N)C(=O)N[C@@H](C)C(=O)N[C@H](C(=O)N[C@@H](CC(C)C)C(=O)N[C@@H](CCCNC(=N)N)C(=O)N[C@@H](CCC(N)=O)C(=O)N[C@@H](CC(C)C)C(=O)N[C@@H](C)C(=O)N[C@@H](CCC(N)=O)C(=O)N[C@@H](CCC(=O)O)C(=O)N[C@@H](CC(=O)O)C(=O)NCC(=O)N[C@H](C(=O)N[C@H](C(=O)NCC(=O)N[C@H](C(=O)N[C@@H](CCCNC(=N)N)C(=O)NCCOCCOCCOCCOCCOCCOCCOCCOCCOCCOCCOCCOCCC(=O)N[C@@H](CS)C(N)=O)C(C)C)C(C)C)C(C)C)[C@@H](C)O", "target or system": "HCC15", "test": "phage binding", "scale": "relative to: targeting over control phage", "measurement": "selectivity ratio", "result": "1 ± 0.51"}
{"note": "A few entries again:"}
{"SMILES": "CC(C)C[C@H](NC(=O)[C@H](CC(=O)O)NC(=O)CNC(=O)[C@@H](N)CCCNC(=N)N)C(=O)N[C@@H](C)C(=O)N[C@H](C(=O)N[C@@H](CC(C)C)C(=O)N[C@@H](CCCNC(=N)N)C(=O)N[C@@H](CCC(N)=O)C(=O)N[C@@H](CC(C)C)C(=O)N[C@@H](C)C(=O)N[C@@H](CCC(N)=O)C(=O)N[C@@H](CCC(=O)O)C(=O)N[C@@H](CC(=O)O)C(=O)NCC(=O)N[C@H](C(=O)N[C@H](C(=O)NCC(=O)N[C@H](C(=O)N[C@@H](CCCNC(=N)N)C(=O)NCCOCCOCCOCCOCCOCCOCCOCCOCCOCCOCCOCCOCCC(=O)N[C@@H](CS)C(N)=O)C(C)C)C(C)C)C(C)C)[C@@H](C)O", "target or system": "HCC15", "test": "phage binding", "scale": "relative to: targeting over control phage", "measurement": "selectivity ratio", "result": "1 ± 0.51"}
